Results gathered from unrelated publications.
A part holds a random share of what one study measured. Substitutions count along the parent as printed.

Sample 1 — technique: RNA Bind-n-Seq; molecule type: RNA; sample: in vitro; concentration: not given; setting: RNA with constant flanks, ends assumed; baseline: input RNA pool; reading: higher = stronger binding
Target: RING finger protein unkempt homolog, zinc fingers 1-6, GST-SBP tag (UNK, Homo sapiens, UniProt Q9C0B0, residues 30-357)
UniProt Q9C0B0, sequence (30-357, looked up): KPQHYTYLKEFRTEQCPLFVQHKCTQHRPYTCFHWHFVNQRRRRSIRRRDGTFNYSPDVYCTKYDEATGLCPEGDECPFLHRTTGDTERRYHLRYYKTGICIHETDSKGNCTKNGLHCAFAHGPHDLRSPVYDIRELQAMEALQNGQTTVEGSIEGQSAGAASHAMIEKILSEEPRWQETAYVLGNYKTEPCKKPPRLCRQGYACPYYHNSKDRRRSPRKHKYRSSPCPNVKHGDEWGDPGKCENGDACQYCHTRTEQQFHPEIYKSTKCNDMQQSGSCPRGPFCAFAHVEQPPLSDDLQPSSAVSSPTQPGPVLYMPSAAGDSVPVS
| Oligonucleotide | bound/input enrichment [ratio] |
| --- | --- |
| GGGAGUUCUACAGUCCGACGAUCGAAGAUAAGCUGGAAUGUUCUGAAGAACUGGGUGAUCUCGUUAAAUCUGUGGACCCAACAUCCGCACUGAGUGUUUACCUCAGGGCCAAUGUACCUAAUAAAGUCAUCCAGUGCUUUGCACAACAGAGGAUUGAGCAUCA | 0.12 |
| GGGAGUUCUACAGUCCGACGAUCUUAGCUUAUGGCAACCAAGAAAGCAAGCUCAUCAUACUGGCUAGUGGUGGACCCCAAGCUUCCGUAAAUAUAAUGAGGACCUAUACUUACGAAAAACUACUGUGGACCACAAGCAGAGUGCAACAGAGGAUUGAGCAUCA | 0.258 |
| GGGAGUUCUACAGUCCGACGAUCGAGUGAAGGACUGUAAUCAUAAUAUGCUCACUACUUGCUCUUGUUUUUGUUUUAAUAAACUACCGCCGUGUUUUAAAAAGUUAAAUGAAGAAUAAACGCAAAUAUAAAAGCUCUGAUUUUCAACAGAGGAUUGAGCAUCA | 0.154 |
| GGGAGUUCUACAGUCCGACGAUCCUGGGUAUUAUUUCUCGAGCUGUUAAACACCUUUUUAAGAGUAUUGAAGAAAAAAAACACACCGCAAUUAAAAAUGGGCUUCCUGCUCCAGAUUUUAAAGUGAAUGCCCAAUUCUUAGAGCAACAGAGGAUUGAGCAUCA | 0.569 |
| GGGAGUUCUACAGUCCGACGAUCGAAAGGGACGGUGGGACCAGUUACUCUCCACAAGAAAACUCACACAACCACAGUGCACUUCACCGUUCAAAUUCACAUUCUUCUAAUCCAAGCAAUAAUCCAAGCAAAACUUCAGAUGCACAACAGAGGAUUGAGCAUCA | 0.268 |
| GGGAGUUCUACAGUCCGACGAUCUAGCAUGGAUUCUUUUUCCAUUUAUUGAAUGUGAGGGAUUUCGAUUGUUUCCAGUUCUUUCCGUUCAGUUUGUAUUGAAUACAUAUAACAAUGUGGUUUCUUACUGUUGGUGAUGGGUCACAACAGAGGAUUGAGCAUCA | 0.506 |
| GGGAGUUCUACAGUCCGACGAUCUUGGAGGAAGUAGGGCAGGGCCCUUAUCUGGAAAGAAGUUUGGAAACCCUGGGGAGAAAUCCGUUAAAAAGAAGUGGAAUCUUGAUGAGCUGCCUAAAUUUGAGAAGAAUUUUUAUCAAGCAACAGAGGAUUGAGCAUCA | 0.164 |
| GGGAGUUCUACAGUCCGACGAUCAGGACAGGGUUAGGAUUGGCAAGGAGAGGGGCAGGAAGGUGGGGGGGGGGGUGGUGGCUCCCGUACCGGGGAGAAUAUUCCACAGAACUGUGACUAUGGCUUGGGGCAGGGGUGGGUGUGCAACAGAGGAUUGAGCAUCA | 0.391 |

Sample 2 — target: CCNF, cyclin fold, Cln2 fusion (human); technique: yeast growth competition, sequencing; sample: yeast; setting: strong parent motif; baseline: not given; reading: higher = stronger binding
Starting sequence: CDKN1B docking peptide (human); PSACRNLFGPVDH; partner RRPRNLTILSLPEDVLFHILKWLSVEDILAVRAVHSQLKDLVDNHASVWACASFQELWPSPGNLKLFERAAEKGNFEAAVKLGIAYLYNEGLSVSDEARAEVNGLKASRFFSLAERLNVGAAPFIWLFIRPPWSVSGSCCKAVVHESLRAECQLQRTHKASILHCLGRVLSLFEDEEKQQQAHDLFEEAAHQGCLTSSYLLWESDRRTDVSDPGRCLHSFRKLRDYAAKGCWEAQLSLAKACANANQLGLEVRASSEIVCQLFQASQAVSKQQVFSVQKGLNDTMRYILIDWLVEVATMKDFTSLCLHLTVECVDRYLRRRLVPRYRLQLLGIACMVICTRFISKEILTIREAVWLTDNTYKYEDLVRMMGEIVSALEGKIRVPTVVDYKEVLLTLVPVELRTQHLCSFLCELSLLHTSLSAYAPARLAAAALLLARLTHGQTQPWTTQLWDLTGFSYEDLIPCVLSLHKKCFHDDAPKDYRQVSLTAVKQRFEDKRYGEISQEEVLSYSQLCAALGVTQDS
| Variant | normalised enrichment score |
| --- | --- |
| PSACRNHFGPVDH [L7H] | 0.916 |
| PSACRNLFRPVDH [G9R] | 2.35 |
| PSACRNLFGPVDQ [H13Q] | 7.06 |
| PSACRNLFHPVDH [G9H] | 4.85 |
| PSATRNLFGPVDH [C4T] | 2.28 |
| PSGCRNLFGPVDH [A3G] | 3.2 |
| PSAMRNLFGPVDH [C4M] | 4.33 |
| PSACRNLFGPVSH [D12S] | 7.2 |
| PSACRNLFGPVDY [H13Y] | 7.08 |
| PSACFNLFGPVDH [R5F] | 0.0278 |

Sample 3 — technique: RNA Bind-n-Seq; molecule type: RNA; sample: in vitro; concentration: 200 nM; setting: whole 134-nt RNA, ends assumed; with: 150 mM LiCl; baseline: input library; reading: higher = stronger binding; each molecule: 7-deaza-guanosine replaces G
Target: Ras GTPase-activating protein-binding protein 1, full length (G3BP1, Homo sapiens, UniProt Q13283)
UniProt Q13283, sequence (whole entry, looked up): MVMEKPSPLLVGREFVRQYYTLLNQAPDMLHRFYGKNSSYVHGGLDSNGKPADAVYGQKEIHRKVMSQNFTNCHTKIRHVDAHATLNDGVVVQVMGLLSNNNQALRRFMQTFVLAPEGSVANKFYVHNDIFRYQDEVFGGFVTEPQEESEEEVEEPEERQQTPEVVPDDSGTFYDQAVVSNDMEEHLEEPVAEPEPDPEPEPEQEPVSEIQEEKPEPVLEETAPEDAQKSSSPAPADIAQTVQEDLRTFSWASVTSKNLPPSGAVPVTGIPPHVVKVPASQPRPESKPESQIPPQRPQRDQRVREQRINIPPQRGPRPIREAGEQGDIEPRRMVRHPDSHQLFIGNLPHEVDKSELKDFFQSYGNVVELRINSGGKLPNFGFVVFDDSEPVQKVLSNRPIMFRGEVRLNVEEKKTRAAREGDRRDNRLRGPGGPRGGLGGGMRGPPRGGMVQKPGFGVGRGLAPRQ
| Oligonucleotide | log2 enrichment |
| --- | --- |
| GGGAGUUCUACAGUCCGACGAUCAGUCCUGUGCUACACAUCGUAUGUACCGAAUCGGGUUUGGGAAAAAAAGGGUUUGGGAAAGUAUUAUGUUACGCCGUUCGGAUCUGCACUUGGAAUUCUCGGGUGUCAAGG | -2.36 |
| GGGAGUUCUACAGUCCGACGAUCCCUGUGCUACACAUCGUAUGUACCGAAUCGGGGUGGGGAAAAAAAGGGGAAAAAAAGGGGAAAGUAUUAUGUUACGCCGUUCGGAUCUGCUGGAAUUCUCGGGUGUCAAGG | 0.0781 |
| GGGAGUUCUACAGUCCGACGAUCCCUGUGCUACACAUCGUAUGUACCGAAUCGGGUUUUUUUGGGUUUUUGGGAAAAAAAGGGAAAGUAUUAUGUUACGCCGUUCGGAUCUGCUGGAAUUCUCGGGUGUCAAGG | -0.545 |
| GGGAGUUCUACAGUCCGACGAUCCCUGUGCUACACAUCGUAUGUACCGAAUCGGGGUUUUUUGGGUUUUUUGGUUUUUUGGGGAAAGUAUUAUGUUACGCCGUUCGGAUCUGCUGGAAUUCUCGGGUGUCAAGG | 0.152 |
| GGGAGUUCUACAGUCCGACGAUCUCCUCAAGUCCUGUGCUACACAUCGUAUGUACCGAAUCGGGAGGGAGGAGGAAAGUAUUAUGUUACGCCGUUCGGAUCUGCACUUCCAGCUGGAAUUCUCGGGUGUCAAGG | -0.672 |
| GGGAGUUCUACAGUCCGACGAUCAAGUCCUGUGCUACACAUCGUAUGUACCGAAUCGGUUUUUUUGGAGGAAAAAAAGGAAAGUAUUAUGUUACGCCGUUCGGAUCUGCACUUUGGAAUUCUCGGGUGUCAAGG | -1.18 |
| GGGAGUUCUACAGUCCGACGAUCCACAGACAACACGCACCCACACAGACACAGAGGGAAGGGGUUGGGAUGGGGACAGGGUGCACAGCAGGGCGGGGUAGGACCCCAGCUCCUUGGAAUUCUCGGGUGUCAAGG | -1.27 |
| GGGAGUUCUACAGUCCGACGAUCUGAAAAUGCUUUCAUGUUAAUUGUGUACACACAUUUCAUCUGUAUCCCUGUUUCUUUUCUCCCUACAGAAACAUAUGAGGAUUUUGAUACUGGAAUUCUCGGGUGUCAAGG | 0.651 |

Mixed results
| Substance | target | test | system | setting | scale | endpoint | result |
| --- | --- | --- | --- | --- | --- | --- | --- |
| PhoQ, residues 284 288 289 292 302 303 SLGVVW | PhoP, residues 12 14 15 18 19 GHCSL (Escherichia coli, UniProt P23836) | Sort-seq, measured: YFP reporter | E. coli | PhoQ-PhoP variant library, with: 10 µM Mg2+ | baseline: high Mg2+ state, higher = stronger signaling | fold induction | 17.8 |

A few entries again (sample 3):
| Oligonucleotide | log2 enrichment |
| --- | --- |
| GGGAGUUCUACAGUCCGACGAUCCCUGUGCUACACAUCGUAUGUACCGAAUCGGGGUGGGGAAAAAAAGGGGAAAAAAAGGGGAAAGUAUUAUGUUACGCCGUUCGGAUCUGCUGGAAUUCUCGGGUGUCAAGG | 0.0781 |
| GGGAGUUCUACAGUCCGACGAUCCCUGUGCUACACAUCGUAUGUACCGAAUCGGGUUUUUUUGGGUUUUUGGGAAAAAAAGGGAAAGUAUUAUGUUACGCCGUUCGGAUCUGCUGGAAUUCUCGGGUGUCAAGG | -0.545 |
